# Experimental data pooled from the literature.
# “And” joins repeats or separate records; there may be more than shown. Numbers after ± are the reported error.
# Cell line: A549
SMILES,assay,conditions,IC50
CC(C)[C@@H]1NC(=O)[C@@H](CCCNC(=N)N)NC(=O)[C@H]([C@@H](C)O)NC(=O)[C@@H](CCCN)NC(=O)[C@H](Cc2ccccc2)NC(=O)[C@@H](Cc2ccc(F)cc2)NC1=O,"cell growth or viability, ATP luminescence",,> 100 µM
COc1ccccc1/C=C1\C(=O)Nc2ccc(Nc3nc(C)nc4ccccc34)cc21,"cell growth or viability, MTT",,2.27 µM
CCOC(=O)/C=C1\S/C(=N\N=C\c2cccc3cc4ccccc4nc23)N(c2ccc([N+](=O)[O-])cc2)C1=O,"cell growth or viability, MTT",48 h,> 50 µM
CCCCCC(=O)[O][Pt]([Cl])([Cl])[O]C(=O)CCCCC.N.N,"cell growth or viability, MTT",,~0.02 µM and 0.02 µM
O=Cc1ccc2c(c1C#Cc1ccc(O)cc1)C(c1ccc(O)cc1)(c1ccc(O)cc1)c1cc(O)ccc1-2,"cell growth or viability, MTT",48 h,> 50 µM
O=C(NCc1cc(F)cc(F)c1)[C@@]1(O)CCN(c2ccc3[nH]ccc3c2)C1=O,colony formation,,0.074 µM
CNC(=O)C1CCCN(C(=O)C2CC3CCC2N3C(=O)[C@@H]2C[C@@H](O)CN2C(=O)NCc2cccc(Cl)c2F)C1 (mixture of isomers),"cell growth or viability, CCK-8",72 h,0.12 µM
CCCc1cc2cc(-n3nc(CCC)c4c3CC(C)(C)CC4=O)cc(N3CCC(O)CC3)c2c(=O)[nH]1,"cell growth or viability, MTS",,8.28 µM
CCCCCCCCCC(=O)Oc1c(C)c(OC)c2c(c1C)OC(=O)C(CCCCCCCC)C2(O)C=Cc1ccccc1 (stereo not drawn),"cell growth or viability, SRB",72 h,> 50 µM
CCCN1C(=O)/C(=C/C(=O)OCC)S/C1=N\N=C\c1cccc2cc3ccccc3nc12,"cell growth or viability, MTT",48 h,> 50 µM
Cc1cc(C(=O)N2CCNCCNCCNCC2)c(O)c(C(=O)N2CCNCCNCCNCC2)c1,"cell growth or viability, MTT",24 h,> 10000 µM
COc1c(C)c(OC(=O)c2ccc3ccccc3c2)c(C)c(O)c1C(=O)/C=C/c1ccccc1,"cell growth or viability, SRB",72 h,> 50 µM
CN(C)c1ccc(-c2oc3cc4ccccc4cc3c(=O)c2O)cc1,cytotoxicity,"24 h, added: visible light",2 ± 1 µM
O=[C]=[Mn-2]12(=[C]=O)(=[C]=O)[O]c3cc4c(cc3=[N+]1CCc1ccccc1)[O][Mn-2](=[C]=O)(=[C]=O)(=[C]=O)([N+]=4CCc1ccccc1)[n+]1ccc(cc1)C(=O)OCCOC(=O)c1cc[n+]2cc1,"cell growth, MTT","48 h, LED light photolysis 1 h",1.51 ± 0.35 µM
CCOC(=O)/C=C1\S/C(=N\N=C\c2cccc3cc4ccccc4nc23)N(CC(C)C)C1=O,"cell growth or viability, MTT",48 h,> 50 µM
CCCc1cc2cc(-n3nc(CO)c4c3CC(C)(C)CC4=O)cc(N3CCC(O)CC3)c2c(=O)[nH]1,"cell growth or viability, MTS",,> 50 µM
O=[C]=[Mn-2]12(=[C]=O)(=[C]=O)[O]c3cc4c(cc3=[N+]1CCc1ccccc1)[O][Mn-2](=[C]=O)(=[C]=O)(=[C]=O)([N+]=4CCc1ccccc1)[n+]1ccc(cc1)C(=O)Nc1ccccc1NC(=O)c1cc[n+]2cc1,"cell growth, MTT","48 h, LED light photolysis 1 h",2.67 ± 0.89 µM
O=C1CS/C(=N\N=C\c2cccc3cc4ccccc4nc23)N1c1ccc(F)cc1,"cell growth or viability, MTT",48 h,26.7 µM
CCOc1cncc(-c2ccc(NC(=O)C3(c4ccnc(NS(=O)(=O)C5CC5)n4)CCOCC3)nc2)n1,"cell growth or viability, ATP luminescence",72 h,3.27 µM
CCCC[N+]1=c2cc3c4cc2[O][Mn-2]1(=[C]=O)(=[C]=O)(=[C]=O)[n+]1ccc(cc1)C(=O)OCCOC(=O)c1cc[n+](cc1)[Mn-2](=[C]=O)(=[C]=O)(=[C]=O)([O]3)[N+]=4CCCC,"cell growth, MTT","48 h, LED light photolysis 1 h",2.18 ± 0.57 µM
O=C1C(Br)=C(Br)C(=O)c2ccccc21,"cell growth or viability, MTT",,66.2 µM
Cc1nc(N(C)c2ccc3c(c2)/C(=C/c2ccccc2C)C(=O)N3C)c2ccccc2n1,"cell growth or viability, MTT",,5.84 µM
COc1c(C)c(OS(=O)(=O)c2ccccc2)c(C)c(OS(=O)(=O)c2ccccc2)c1C(=O)/C=C/c1ccccc1,"cell growth or viability, SRB",72 h,> 50 µM
CC(=O)NCCOCCNC(=O)c1cc(C(=O)N2CCNCCNCCNCC2)c(O)c(C(=O)N2CCNCCNCCNCC2)c1,"cell growth or viability, MTT",24 h,> 1000 µM
Cc1ccc2c(c1C#Cc1ccc(O)cc1)C(c1ccc(O)cc1)(c1ccc(O)cc1)c1cc(O)ccc1-2,"cell growth or viability, MTT",48 h,13.1 µM
CCCc1cc2cc(-n3nc(C(F)F)c4c3CC3(CCC3)CC4=O)cc(N3CCC(O)CC3)c2c(=O)[nH]1,"cell growth or viability, MTS",,3.81 µM
Cc1sc2c(c1C)C(c1ccc(Cl)cc1)=N[C@@H](CC(=O)NCCN(C)CCCCNC(=O)CCCCOc1cccc3c1C(=O)N([C@H]1CCC(=O)NC1=O)C3=O)c1nnc(C)n1-2,"cell growth or viability, CCK-8",72 h,> 10 µM
Oc1ccc(C#Cc2c(O)ccc3c2C(c2ccc(O)cc2)(c2ccc(O)cc2)c2cc(O)ccc2-3)cc1,"cell growth or viability, MTT",48 h,19.4 µM
O=C(/C=C/Sc1ccc(C(F)(F)F)cn1)c1ccccc1,"cell growth or viability, ATP luminescence",48 h,16.1 µM
NC(=O)c1ccc(-c2ccccc2Cl)c2c3c([nH]c12)CC[C@@H](N)C3,cell growth or viability,,0.0256 µM
CCCc1cc2cc(-n3nc(N)c4c3CC(C)(C)CC4=O)cc(N3CCC(O)CC3)c2c(=O)[nH]1,"cell growth or viability, MTS",,> 50 µM
CN1C(=O)CS/C1=N\N=C\c1cccc2cc3ccccc3nc12,"cell growth or viability, MTT",48 h,36.6 µM
Cc1ccc(C(C)C)cc1.Cc1ccc(C(C)C)cc1.Cc1ccc(C(C)C)cc1.Cc1ccc(C(C)C)cc1.O=S(=O)(O)C(F)(F)F.O=S(=O)(O)C(F)(F)F.O=S(=O)(O)C(F)(F)F.O=S(=O)(O)C(F)(F)F.c1ccc2c3c4ccccc4c(c2c1)-c1cn(nn1)-c1cc[n+](cc1)[Ru-]1[O]C2=[O+][Ru-]([O]C2=[O+]1)[n+]1ccc(cc1)-n1cc(nn1)-c1c2ccccc2c(c2ccccc12)-c1cn(nn1)-c1cc[n+](cc1)[Ru-]1[O]C2=[O+][Ru-]([O]C2=[O+]1)[n+]1ccc(cc1)-n1cc-3nn1,"cell growth or viability, MTT",24 h,> 20 µM
CN1CCC(N[C@@H]2CCc3[nH]c4c(C(N)=O)ccc(-c5ccccc5Cl)c4c3C2)CC1,cell growth or viability,,0.0364 µM
O=C(NCCOCCNC(=O)c1cc2ccccc2c2ccccc12)c1cc(C(=O)N2CCNCCNCCNCC2)c(O)c(C(=O)N2CCNCCNCCNCC2)c1,"cell growth or viability, MTT",24 h,> 1000 µM
COC1=C(OC)C(O)C(CC=C(C)CCC=C(C)CCC=C(C)C(=O)O)C(C)C1=O (stereo not drawn),"cell growth or viability, MTS",,6.63 µM and 14.9 µM

# For quick reference, copied from above:
SMILES,assay,conditions,IC50
Cc1ccc(C(C)C)cc1.Cc1ccc(C(C)C)cc1.Cc1ccc(C(C)C)cc1.Cc1ccc(C(C)C)cc1.O=S(=O)(O)C(F)(F)F.O=S(=O)(O)C(F)(F)F.O=S(=O)(O)C(F)(F)F.O=S(=O)(O)C(F)(F)F.c1ccc2c3c4ccccc4c(c2c1)-c1cn(nn1)-c1cc[n+](cc1)[Ru-]1[O]C2=[O+][Ru-]([O]C2=[O+]1)[n+]1ccc(cc1)-n1cc(nn1)-c1c2ccccc2c(c2ccccc12)-c1cn(nn1)-c1cc[n+](cc1)[Ru-]1[O]C2=[O+][Ru-]([O]C2=[O+]1)[n+]1ccc(cc1)-n1cc-3nn1,"cell growth or viability, MTT",24 h,> 20 µM
CN1CCC(N[C@@H]2CCc3[nH]c4c(C(N)=O)ccc(-c5ccccc5Cl)c4c3C2)CC1,cell growth or viability,,0.0364 µM
O=C(NCCOCCNC(=O)c1cc2ccccc2c2ccccc12)c1cc(C(=O)N2CCNCCNCCNCC2)c(O)c(C(=O)N2CCNCCNCCNCC2)c1,"cell growth or viability, MTT",24 h,> 1000 µM
